Measurements from different studies.
Each numbered part is a random draw from the data of one study; scales do not carry over between parts. Substitutions count along the parent as printed.

Set 1 — technique: protein binding microarray; form: double-stranded DNA, one strand shown; sample: in vitro; tested at: not given; relative to: not given; reading: higher = stronger binding; endpoint: E-score
Target: Histone acetyltransferase KAT6A, winged helix 2, GST fusion (KAT6A, Homo sapiens, UniProt Q92794, residues 85-181)
Notes: 8-mer, flanks averaged, mean of 2 arrays, mostly near background
Target sequence (chain): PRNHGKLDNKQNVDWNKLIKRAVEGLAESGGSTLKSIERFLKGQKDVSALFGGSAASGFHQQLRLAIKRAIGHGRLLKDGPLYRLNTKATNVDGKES
TAACCAGA: -0.0824
CCACGCAG: 0.0462
AATAGACA: -0.0209
GTGAAGAA: 0.0175
AAATGTGA: -0.0814
GTTACTTA: -0.0025
GCACTCAA: -0.0811
CCACGACC: 0.0403
ATCATTGG: -0.0868
TCTGCGCA: 0.0247
CTGAAGAC: -0.119
GGGCGCGA: 0.323
TCCTGTCA: 0.0225
CACCTGTC: -0.0797
TCCACCGA: -0.0149

Set 2 — technique: DHFR PCA, deep sequencing; sample: yeast; together with: (+)-ABA 710 µM; relative to: wild-type fitted maximum; reading: higher = stronger binding; endpoint: relative binding score
Target: ABI1, truncated, D143A, DHFR fusion (Arabidopsis thaliana)
Notes: methotrexate growth selection, single substitutions
Starting sequence: PYL1, truncated, DHFR fusion (Arabidopsis thaliana); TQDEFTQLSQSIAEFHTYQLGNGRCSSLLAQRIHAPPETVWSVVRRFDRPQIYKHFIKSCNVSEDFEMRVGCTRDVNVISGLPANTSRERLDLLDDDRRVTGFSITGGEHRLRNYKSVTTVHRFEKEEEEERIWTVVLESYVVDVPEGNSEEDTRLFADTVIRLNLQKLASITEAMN
D48R: 69.4%
S171N: 96.2%
G107K: 88.5%
P83C: 69%
N77E: 104%
S171T: 104%
S140M: 16.9%
L91G: -23.5%
S42E: 107%
E130M: 106%
R88M: 107%
V62F: 93.5%
R111I: 55.4%

Set 3 — technique: RNA Bind-n-Seq; form: RNA; sample: in vitro; tested at: 100 nM; relative to: input RNA pool; reading: higher = stronger binding; endpoint: bound/input enrichment
Target: RING finger protein unkempt homolog, zinc fingers 1-6, SBP tag (UNK, Homo sapiens, UniProt Q9C0B0, residues 30-357)
UniProt Q9C0B0, sequence (30-357, looked up): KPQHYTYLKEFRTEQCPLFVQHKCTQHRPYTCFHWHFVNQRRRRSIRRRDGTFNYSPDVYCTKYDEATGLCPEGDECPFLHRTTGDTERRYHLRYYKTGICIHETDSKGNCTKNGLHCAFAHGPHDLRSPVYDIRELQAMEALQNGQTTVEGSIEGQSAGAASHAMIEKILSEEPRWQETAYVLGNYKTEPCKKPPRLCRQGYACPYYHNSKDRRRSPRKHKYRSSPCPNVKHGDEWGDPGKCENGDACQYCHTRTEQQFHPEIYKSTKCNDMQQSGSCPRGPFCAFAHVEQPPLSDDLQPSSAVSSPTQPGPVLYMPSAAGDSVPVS
Notes: RNA with constant flanks, vertebrate orthologous sites, ends assumed
Constant ends, left off below: GGGAGUUCUACAGUCCGACGAUC … CAACAGAGGAUUGAGCAUCA
UGGGUUAUUCCUAUUAUUAUCAAGUAGCUGGAAUUGUGAAGGUCGGAGUAGUUAGAGCUUUAGCUUUUAUUCCUUAUUUUUUUGUAUUACUAUCCAUGUGUAUAAAUUAUUGAUCAUGUU: 1.63 ratio
GUGUUUUGUACAGGGUAGUCUCUGUACUAGUUUGUUGUGGUUAUAAAAUAAUUAGCAAAACAGCUUACAUUUGUAUUUAUUUUCUAUUCCAUAAUUUUGCCCCAUGUUUUCUUUCAAAAU: 0.688 ratio
UCCCCAUUACCCCUAAAGUAGAACAUUUUUUAAAUUGUGUUGCCACCACUUCUAAAAAUUUAGCAAUAUUAGAAUAGGAUACUAGUGAAGUAAGAAAUUUUGCUUGUUGUUUUGCAAACC: 4 ratio
UACUGGUAGGAAACAGGUCUAUCCAGAGAAGUAAUGCUCUAUAAAUAUUAUUAAAUAAUUCAGCUAUAGUUUUUUUUAAGUAUUAAAUUAUAUUUGAAGCAGUUAAAUGAAUUUGAGAAU: 0.411 ratio
CCCAGUUUGUAUGUACAUUAUUCACAUUCCUCUCUGUUUUGUUGGGAAAAGAGACAUUUUAACCUUUUUUAAAAGGUUAUUGAUUUAAUUUCAUGUUAUUUGGUUGCAUGAAGUUGCCCU: 0.275 ratio
AUUUGUAGCCAUUUUUACAUGUUUCCUAGAAAUAAUGGAUAAUCAUUUUCUUUUCUUUUUAAGUGCUGCUUUAACAAUGUGAAUAUACUAUAAAUGUACUUGCUGAAUUCAUUCAUUUUU: 0.386 ratio
GGGCGGCCGGUGGGGAAAUCCCAUGCCCUGGCCUUGCCUCCCCUCCCUGCCACCCGCUCCUAUUUUUUUUUUUAACCACCAUGUGAUUAAGGUCGGCACAGCCUCCCCCGACCCACUCAG: 0.682 ratio
UCAUUGUACUGCAAAAAUCAUCCUCGUUCUAAAUUAGCCACAGUGAUAACUUGUCUGCACUAGUAGAAUCAUUUACCUUUUAAAUUACCUGCUUUGUCUGAUACCUGAAACACAUCAAAA: 0.742 ratio

Set 4 — technique: competition protein-binding microarray; form: double-stranded DNA, one strand shown; sample: in vitro; tested at: 2 µM; together with: Pho4 competitor, 0.05 µM; reading: higher = stronger binding; endpoint: fluorescence intensity; constant ends, left off below: … GTCTTGATTCGCTTGACGCTGCTG
Target: Centromere-binding protein 1, full length, His-tagged (CBF1, Saccharomyces cerevisiae, UniProt P17106, residues 1-351)
UniProt P17106, sequence (whole entry, looked up): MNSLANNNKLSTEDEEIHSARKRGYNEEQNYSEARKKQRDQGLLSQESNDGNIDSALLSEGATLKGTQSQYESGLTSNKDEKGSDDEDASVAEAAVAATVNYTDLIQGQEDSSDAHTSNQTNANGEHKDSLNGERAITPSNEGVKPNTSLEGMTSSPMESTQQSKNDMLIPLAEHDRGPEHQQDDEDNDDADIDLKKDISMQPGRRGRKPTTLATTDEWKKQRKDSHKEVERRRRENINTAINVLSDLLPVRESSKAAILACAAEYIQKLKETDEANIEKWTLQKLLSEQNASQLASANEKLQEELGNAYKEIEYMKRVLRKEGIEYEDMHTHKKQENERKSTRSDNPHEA
Notes: whole 60-bp probe, lowest competitor level
ATAGATAGATGGCCGAACGTGGAATGCCTCTATGGG: 55.9 a.u.
AAAGCGGTAATTTGTCACACCACTTCACATATCTAT: 149 a.u.
CGTCCTAGTGATTGCCGAGTGGGTGCCATGAGGAAG: 90.2 a.u.
GTCTTGTCTCATTTTCACGTGACGTTCCCCACTTCA: 3960 a.u.
AAAGCCTACGCGAGTCACGTTCCAGGAAGATGAAGG: 692 a.u.
CTAACGAAGGTTTGTCACAATACTTACAAGCCAAGT: 94.7 a.u.
AAAGCGGTAATTTTTCACGTGCACTCACATATCTAT: 1400 a.u.
GTCTTGTCTCATTGGGCTGTGGGTGTCCCCACTTCA: 84.2 a.u.
TTCAGCTTGGCTATTTTGTGAACACTGTATAGCCAG: 74.2 a.u.
GTCTTGTCTCATTGTCACCCCACTTTCCCCACTTCA: 82.3 a.u.
TAGTCCTACAAAACCGGCGTGGGTACATAGATTTTC: 51.9 a.u.
TAGGATCGACTTACCCACGTCCAACTGCTGTTGACG: 55.3 a.u.
GATCGGCTACGCAACTACGTGCATCGCTCCGTTGGA: 58.8 a.u.
CTTTCCCGATCTTGCATGGTGGGTGTAGCACATTTG: 65.5 a.u.
GAGAAATAGTCATCGTTTTCAACGGAAGCTGAAATA: 79.4 a.u.
CGGGGTTAAGTTTGGAAGGTGGGTGGCTTGCAGCAG: 75.8 a.u.
AGGCGAATTCTTGTCATCGTGCCGACAGCAAGCCAT: 74.2 a.u.
TCCTTGTTGACTTACCACATGTGTGGCCGCCTTTTA: 94.4 a.u.
TTTACCCCTGGTACCCACGTCCAGTTCGCTTATCTC: 62.1 a.u.
CTTCTGTAAATTTGAGTAGTGGGTGGACGCGCCCCG: 97.7 a.u.

Set 5 — technique: universal PBM; form: double-stranded DNA, one strand shown; sample: in vitro; tested at: 600 nM; reading: higher = stronger binding; endpoint: E-score
Target: Sal-like protein 4, full length isoform A (SALL4, Homo sapiens, UniProt Q9UJQ4, residues 1-1053)
UniProt Q9UJQ4, sequence (whole entry, looked up): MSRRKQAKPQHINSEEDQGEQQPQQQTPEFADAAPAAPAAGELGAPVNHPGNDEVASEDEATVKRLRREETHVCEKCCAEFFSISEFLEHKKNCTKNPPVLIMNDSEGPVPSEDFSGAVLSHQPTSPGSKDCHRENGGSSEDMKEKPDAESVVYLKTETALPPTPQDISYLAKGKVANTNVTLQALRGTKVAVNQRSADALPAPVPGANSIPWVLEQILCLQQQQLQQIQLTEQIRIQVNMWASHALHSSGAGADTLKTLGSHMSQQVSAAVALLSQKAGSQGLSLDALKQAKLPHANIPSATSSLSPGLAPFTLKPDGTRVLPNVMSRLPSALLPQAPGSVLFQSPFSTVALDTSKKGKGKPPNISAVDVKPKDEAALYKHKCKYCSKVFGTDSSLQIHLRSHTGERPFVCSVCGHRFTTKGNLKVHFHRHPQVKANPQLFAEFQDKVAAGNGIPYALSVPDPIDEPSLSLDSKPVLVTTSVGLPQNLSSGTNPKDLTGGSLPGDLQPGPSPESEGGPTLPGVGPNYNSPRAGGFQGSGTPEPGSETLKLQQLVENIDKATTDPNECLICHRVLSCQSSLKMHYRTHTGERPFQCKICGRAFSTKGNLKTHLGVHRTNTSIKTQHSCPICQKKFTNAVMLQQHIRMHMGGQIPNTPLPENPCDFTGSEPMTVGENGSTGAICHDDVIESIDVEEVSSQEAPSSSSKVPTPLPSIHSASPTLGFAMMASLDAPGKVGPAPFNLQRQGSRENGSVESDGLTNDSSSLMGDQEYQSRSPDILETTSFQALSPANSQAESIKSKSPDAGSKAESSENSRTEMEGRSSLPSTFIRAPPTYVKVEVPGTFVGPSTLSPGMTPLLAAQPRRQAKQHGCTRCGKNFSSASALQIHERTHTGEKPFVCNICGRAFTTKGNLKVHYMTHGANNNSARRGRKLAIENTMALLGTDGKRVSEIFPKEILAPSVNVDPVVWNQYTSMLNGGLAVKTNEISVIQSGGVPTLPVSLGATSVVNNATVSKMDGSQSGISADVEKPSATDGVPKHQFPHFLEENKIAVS
Notes: 8-mer, flanks averaged, mean of replicates
TGGCTGAA: 0.00287
ACATTGCG: 0.0124
CGGACTAC: -0.0271
CTAACTAC: -0.0123
TCGAATAA: 0.274
ACAATTTG: 0.155
ACTACTGG: -0.0779
ACGCCAAG: -0.195
ATACATCG: 0.176
ACCTTGAA: 0.0538
CGATTCAG: -0.0764
AGAAAAAG: -0.0541
CTCCCAAA: -0.0285
ACTAGTGG: -0.134
TCCGCAAA: 0.0842
TATGCCCA: -0.0248
ACTAGCGC: -0.204
GGAGGGAC: -0.24
AAGCGCCC: -0.309
CCAGATGA: -0.0626
AATTAGGT: 0.24
GAGGTAGA: -0.157
GCTGACTA: -0.16
ACAACCGT: -0.116
AGCCAGTC: -0.145

Set 6 — technique: RNA Bind-n-Seq; form: RNA; sample: in vitro; tested at: 365 nM; relative to: no-protein control; reading: higher = stronger binding; endpoint: RBNS enrichment (R)
Target: RNA binding protein fox-1 homolog 2, RRM domain, GST-SBP tag (RBFOX2, Homo sapiens, UniProt O43251-10, residues 100-194)
Notes: natural RNA segment, single round, ends assumed
Constant ends, left off below: GGGAGUUCUACAGUCCGACGAUC … UGGAAUUCUCGGGUGCCAA
Target sequence (chain): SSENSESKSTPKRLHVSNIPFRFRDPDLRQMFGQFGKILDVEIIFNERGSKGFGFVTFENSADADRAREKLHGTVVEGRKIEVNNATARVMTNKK
GCAAACAUAAAUGUAAAUACACUGAUUUAUUCUGUUACUAGAUCAGGUUUUAGGGUCCUGCAAAAGGCUAGCUCGGCACUACACUAGGGAAUUUGCUCCUGUUCUGUCAC: 0.488
UAAUAGAUGAAGAGGUCUUAUUCAGAUGCUUCAUGUCCAUUUUACAUUACCCAUCUACUGUCGCAUGGUAGGAUAGCUUUUUGUCUCUGAAUAUGUGAAUAACUUGACUU: 1.37
AUUCAAACCGCGAUGUUUACUUUUUGUAUUGAUCACUUUUUUGCACUCCUUCUUCGUUGUCGAUGUUGUACUCAGCCUAUGGUAGGAGAGGAUGUGGCUUUGCAACUCAG: 1.13
UUAAAGGCCAAACGGACUGUCCCAUUUUGGGGAUCAGGACAUCCCUGUCCUUAUCUCCUGUCAUAGCUGUCCAACUGCAGGGUAAGGAGCAAGUUGUGAGGAAAGGUCCU: 0.248
GAAGAGGUUUUCUUGAUAAUUUUCCUUUAAUAUGAAAUUUUCGUGCUUUAUCAGUAGCCCAGGAUAUAUUUUAUUUUUAGAAUUUUGUGAGCCAGACUUGUAUAUUCUAU: 0.721
CAAGGAUGAAAAGCACAUGGAAAAAAAUGGAUGAGGAGGGAAAACUCUGCCAAAUGGAAAAUGACCAAAUUUAAGAGGGUGGGACAGUCCCCUGCUCCUCUCCCAGAGGG: 1.82
GAGACAGUGUAGACAGCAGCUCUGCUCUGUAUUCUUUUUGACAAAACCAGAACAGUAGAAGUAGCCAAUCGUAAGACCUGAAGACAUUUUGAAUGUCCCACUGGACUAAC: 0.271
AAGGGCAGGACCAAUGGCUGAGCCUCGUGUCCAGACUCAGAGGGCUGGAUUUUGGUUCCCUUGUAAAGACAGAGUGAAUUUCAGUAUAAAGAUCACCCGUUGUAUUCACC: 0.884
GGCCAGUGGGGAGCUGGAAAAAACAAGGCAGCCUUUAGGAAGGCCAUGGUGCAUGUGUGUGCAUGCGUGUAUGUGCAGCCGCCCUCCCUCACUUCAGGAGCAAGCUGUUU: 3.39
GUCAGUGUUUGCCUUCGCACCUCCUCCCCUAAAGCAGCGCGGGGGGCAAAUAAGACCCCACCCCUCCCUGCAGCUUCACAGGGACGCUUCCUUCCCUCCCCGCAACCACC: 1.77
CCUGAGAGGUUCUUGAAGAUGUUUAUUUAUAUUGUCCUUUUUUACUGGAAGACGUACGCAUACUCCAUCGAUGUUGUAUUUGCAGUGGCUGAGGAAUUCUUGUACGCAGU: 2.05
GGUAUCACCGAGGAAACCUUGCCCCCAUCACUCAGCAUUGCACUUAGAUACAGAAUGAGUUAGAUAAACUUGGCUUGUCUAGAGACCCAUGUCAUCUUAACCUAAAGGGA: 0.428

For quick reference, copied from above (set 5):
CTAACTAC: -0.0123
TCGAATAA: 0.274
ACAATTTG: 0.155
ACTACTGG: -0.0779
ACGCCAAG: -0.195
ATACATCG: 0.176
ACCTTGAA: 0.0538
CGATTCAG: -0.0764
AGAAAAAG: -0.0541
CTCCCAAA: -0.0285
ACTAGTGG: -0.134
TCCGCAAA: 0.0842
